Experimental data of several laboratories.
Each line is one published result; not all experiments were run side by side. ± gives the spread as reported.
Target: Cytochrome P450 3A5 (CYP3A5, Homo sapiens, UniProt P20815)
Chain of UniProt P20815 (whole entry, looked up): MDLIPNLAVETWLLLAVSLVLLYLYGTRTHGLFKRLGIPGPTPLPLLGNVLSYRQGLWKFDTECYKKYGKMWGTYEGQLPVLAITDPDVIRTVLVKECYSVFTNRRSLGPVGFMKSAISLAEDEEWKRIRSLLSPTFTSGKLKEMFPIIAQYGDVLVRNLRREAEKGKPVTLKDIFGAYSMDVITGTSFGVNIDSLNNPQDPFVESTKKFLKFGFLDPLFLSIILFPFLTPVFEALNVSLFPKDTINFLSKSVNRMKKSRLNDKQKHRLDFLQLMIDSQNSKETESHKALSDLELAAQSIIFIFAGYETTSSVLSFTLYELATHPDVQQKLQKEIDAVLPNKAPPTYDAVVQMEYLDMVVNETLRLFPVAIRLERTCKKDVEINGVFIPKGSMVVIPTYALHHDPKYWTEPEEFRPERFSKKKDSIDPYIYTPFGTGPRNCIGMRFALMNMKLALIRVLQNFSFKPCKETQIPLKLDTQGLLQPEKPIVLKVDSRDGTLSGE

C[C@H]1CN(C2COC2)CCN1c1ccc(Nc2cc(-c3ccnc(N4CCn5c(cc6c5CC(C)(C)C6)C4=O)c3CO)cn(C)c2=O)nc1
remaining compound (substrate; recombinant enzyme; 1 µM, 60 min): 34 ± 3.8%

C=CC(=O)N(C)CCOc1c(N)ncnc1-c1cc(F)cc(NC(=O)c2ccc(C3CC3)cc2F)c1C
fraction metabolised by CYP (recombinant human CYP): 0.8%

CC[C@H](C)[C@@H]([C@@H](CC(=O)N1CCC[C@H]1[C@H](OC)[C@@H](C)C(=O)N[C@@H](Cc1ccccc1)C(=O)NCCCO)OC)N(C)C(=O)[C@@H](NC(=O)[C@H](C(C)C)N(C)C)C(C)C
fraction metabolised by CYP3A5 (scaled to HLM abundance): 33%

Cc1cc(C)c(CNC(=O)c2cc(Cl)c3c(c2C)O[C@@](C)([C@H]2CC[C@H](N(C)C)CC2)O3)c(=O)[nH]1
CLint (recombinant human CYP3A5; 0 and 30 min): 0.115 µL/min/pmol

C=CC(=O)Nc1cc(Nc2nccc(-c3cn(C)c4ccccc34)n2)c(OCC(F)(F)F)nc1N(C)CCNC
fraction metabolized (substrate, recombinant enzyme): 0.25%

C[C@@H](Oc1ccc(S(C)(=O)=O)cc1C(=O)N1C[C@@H]2C[C@]2(c2cc(C(F)(F)F)on2)C1)C(F)(F)F
CYP contribution (recombinant CYP, average; phosphate buffer; pH 7.4): 3.64%

C=CC(=O)Nc1cc(Nc2nccc(-c3cn(C)c4ccccc34)n2)c(OCC(F)(F)F)nc1N(C)CCN(C)C
intrinsic clearance (substrate depletion; recombinant human CYP; 1 µM): 0.72 µL/min/pmol

N#C[C@H](C[C@@H]1CCCNC1=O)NC(=O)[C@H](CC1CC1)NC(=O)c1cc2cccc(Cl)c2[nH]1
fraction metabolised (ISEF abundance scaling; 2 µM, pH 7.4): < 1%

A few entries again:
CC[C@H](C)[C@@H]([C@@H](CC(=O)N1CCC[C@H]1[C@H](OC)[C@@H](C)C(=O)N[C@@H](Cc1ccccc1)C(=O)NCCCO)OC)N(C)C(=O)[C@@H](NC(=O)[C@H](C(C)C)N(C)C)C(C)C
fraction metabolised by CYP3A5 (scaled to HLM abundance): 33%
